{"data": "Results from different studies", "note": "Every numbered part comes from another study and shows a few of its results, in no order."}
{"data": "Block 1", "target": "Phosphate system positive regulatory protein PHO4, full length, GST-tagged (PHO4, Saccharomyces cerevisiae, UniProt P07270, residues 1-312)", "method": "competition protein-binding microarray", "molecule type": "double-stranded DNA, one strand shown", "sample": "in vitro", "concentration": "2 µM", "notes": "whole 60-bp probe, lowest competitor level", "together with": "Cbf1 competitor, 0.05 µM", "direction": "higher = stronger binding", "shared flanks, not repeated": "… GTCTTGATTCGCTTGACGCTGCTG", "Residues (chain)": "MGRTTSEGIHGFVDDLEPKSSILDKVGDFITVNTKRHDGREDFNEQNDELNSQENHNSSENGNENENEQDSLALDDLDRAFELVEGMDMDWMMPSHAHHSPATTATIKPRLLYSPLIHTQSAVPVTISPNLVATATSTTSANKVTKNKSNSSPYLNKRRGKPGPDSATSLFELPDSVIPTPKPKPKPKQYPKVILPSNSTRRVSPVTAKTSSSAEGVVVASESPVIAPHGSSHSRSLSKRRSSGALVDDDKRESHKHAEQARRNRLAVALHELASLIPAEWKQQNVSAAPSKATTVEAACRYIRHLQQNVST"}
{"Sequence": "TCCTTAATGCCCAAGCACATGGGTCAGGGTTCATTA", "fluorescence intensity": "11600 a.u."}
{"Sequence": "AGATTCTGCAAATGGTACGTGATGGTGGTCCGCGGA", "fluorescence intensity": "6140 a.u."}
{"Sequence": "TGTGCAGACTTCCATCACGTGAACCACAGTAACCTA", "fluorescence intensity": "12500 a.u."}
{"Sequence": "CTTTCCCGATCTTCGCACGTGTTTTTAGCACATTTG", "fluorescence intensity": "19400 a.u."}
{"Sequence": "GTCAACCGATTGGATCAGGTGAGGAAGTACTCAGCG", "fluorescence intensity": "2950 a.u."}
{"Sequence": "CTTCTGTAAATTTGTCACTGTACTTGACGCGCCCCG", "fluorescence intensity": "3540 a.u."}
{"Sequence": "CATACCCAACCTTGTGGAGTGGGTGAAGATATTTGT", "fluorescence intensity": "5990 a.u."}
{"Sequence": "AACGACACCGGCACCTTCGTGACGGCCGACTAATGG", "fluorescence intensity": "4880 a.u."}
{"Sequence": "CAAATGGGTGGGTGGCGCGTGGCAGGGACTTCCCTA", "fluorescence intensity": "9810 a.u."}
{"data": "Block 2", "target": "Prothrombin, mature alpha-thrombin (F2, Homo sapiens, UniProt P00734)", "method": "aptamer microarray, sandwich", "molecule type": "DNA with 2'F-ANA", "sample": "in vitro", "concentration": "200 nM", "notes": "whole 15-mer aptamer, many near background", "together with": "Cy3 exosite-II aptamer, 400 nM", "direction": "higher = stronger binding", "sequence": "GGTTGGTGTGGTTGG"}
{"Modification": "2'F-ANA at 1 2 3 6 9 10 11 15", "mean fluorescence intensity [a.u.]": 70.4}
{"Modification": "2'F-ANA at 1 2 5 6 7 8 10 12 15", "mean fluorescence intensity [a.u.]": 52.9}
{"Modification": "2'F-ANA at 6 7 8 9 10 11 14 15", "mean fluorescence intensity [a.u.]": 97.3}
{"Modification": "2'F-ANA at 2 8 12 14 15", "mean fluorescence intensity [a.u.]": 202}
{"Modification": "2'F-ANA at 1 2 4 5 10 13 14 15", "mean fluorescence intensity [a.u.]": 48.3}
{"Modification": "2'F-ANA at 2 4 12 14 15", "mean fluorescence intensity [a.u.]": 194}
{"Modification": "2'F-ANA at 3 9 11 13 14 15", "mean fluorescence intensity [a.u.]": 542}
{"Modification": "2'F-ANA at 2 3 5 8 9 10 12 14 15", "mean fluorescence intensity [a.u.]": 50.4}
{"Modification": "2'F-ANA at 1 3 5 7 9 13 14", "mean fluorescence intensity [a.u.]": 50}
{"data": "Block 3", "target": "Sal-like protein 4, full length isoform B (SALL4, Homo sapiens, UniProt Q9UJQ4-2, residues 1-616)", "method": "universal PBM", "molecule type": "double-stranded DNA, one strand shown", "sample": "in vitro", "concentration": "not given", "notes": "8-mer, flanks averaged, mean of replicates", "direction": "higher = stronger binding", "Construct (chain)": "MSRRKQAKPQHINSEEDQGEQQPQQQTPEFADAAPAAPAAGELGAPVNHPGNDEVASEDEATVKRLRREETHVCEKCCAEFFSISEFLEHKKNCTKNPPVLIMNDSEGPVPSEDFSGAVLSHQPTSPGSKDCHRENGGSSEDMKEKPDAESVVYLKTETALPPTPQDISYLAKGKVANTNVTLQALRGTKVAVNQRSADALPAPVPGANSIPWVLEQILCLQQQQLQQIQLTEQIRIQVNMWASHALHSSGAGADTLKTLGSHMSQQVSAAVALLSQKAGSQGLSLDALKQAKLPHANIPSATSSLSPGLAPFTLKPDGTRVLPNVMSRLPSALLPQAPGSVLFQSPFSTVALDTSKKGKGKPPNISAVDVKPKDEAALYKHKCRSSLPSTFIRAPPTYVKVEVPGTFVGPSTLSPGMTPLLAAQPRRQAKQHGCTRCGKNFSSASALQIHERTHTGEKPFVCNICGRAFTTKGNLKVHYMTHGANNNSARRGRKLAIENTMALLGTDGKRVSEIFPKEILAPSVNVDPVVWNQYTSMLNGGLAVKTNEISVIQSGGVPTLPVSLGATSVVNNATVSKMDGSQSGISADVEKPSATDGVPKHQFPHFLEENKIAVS"}
{"Sequence": "CTAATTGA", "E-score": 0.15}
{"Sequence": "CAGTAAAC", "E-score": 0.146}
{"Sequence": "ACGCCCCA", "E-score": -0.295}
{"Sequence": "GCAATTAA", "E-score": 0.231}
{"Sequence": "ACACACAG", "E-score": -0.0502}
{"Sequence": "ACTTCCAT", "E-score": -0.0192}
{"Sequence": "AGGTCCTG", "E-score": -0.147}
{"Sequence": "GGAGCACA", "E-score": -0.059}
{"Sequence": "CAGGCTAG", "E-score": -0.249}
{"data": "Single results of other studies"}
{"Molecule": "PhoQ, residues 284 288 289 292 302 303 AAQSYM", "target": "PhoP, residues 12 14 15 18 19 MHTVL (Escherichia coli, UniProt P23836)", "test": "Sort-seq, refers to: YFP reporter", "system": "E. coli", "conditions": "PhoQ-PhoP variant library, together with: 10 µM Mg2+", "how to read": "reference: high Mg2+ state, higher = stronger signaling", "endpoint": "fold induction", "value": 16.6}
{"note": "A few entries again (block 1):"}
{"Sequence": "CAAATGGGTGGGTGGCGCGTGGCAGGGACTTCCCTA", "fluorescence intensity": "9810 a.u."}
{"Sequence": "TCCTTAATGCCCAAGCACATGGGTCAGGGTTCATTA", "fluorescence intensity": "11600 a.u."}
{"Sequence": "TGTGCAGACTTCCATCACGTGAACCACAGTAACCTA", "fluorescence intensity": "12500 a.u."}
{"Sequence": "AACGACACCGGCACCTTCGTGACGGCCGACTAATGG", "fluorescence intensity": "4880 a.u."}
